Measurements from different studies.
A part holds a random share of what one study measured.

Sample 1 — method: RNAcompete; form: RNA; sample: in vitro; concentration: 20 nM; setting: 7-mer, probes averaged, single round; relative to: mean of 7-mers; reading: higher = stronger binding; measurement: 7-mer Z-score
Target: PABPC1L2, full length, GST fusion (mouse, UniProt A0ABA7IW68)
Target sequence (chain): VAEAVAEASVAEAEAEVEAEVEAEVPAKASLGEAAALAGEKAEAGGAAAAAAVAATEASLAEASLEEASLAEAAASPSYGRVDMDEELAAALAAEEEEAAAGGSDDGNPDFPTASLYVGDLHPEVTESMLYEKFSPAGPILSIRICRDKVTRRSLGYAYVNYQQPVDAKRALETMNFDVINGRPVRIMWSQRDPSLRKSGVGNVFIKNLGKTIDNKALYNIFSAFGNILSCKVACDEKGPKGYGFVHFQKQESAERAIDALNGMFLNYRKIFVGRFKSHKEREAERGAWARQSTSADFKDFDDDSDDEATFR
GUACUAG: -0.161
ACGUCAU: -0.226
GUGAUAU: -0.229
ACCGGCA: -0.148

Sample 2 — method: universal PBM; form: double-stranded DNA, one strand shown; sample: in vitro; concentration: not given; reading: higher = stronger binding; measurement: E-score
Target: Sal-like protein 4, full length isoform B (SALL4, Homo sapiens, UniProt Q9UJQ4-2, residues 1-616)
Setting: 8-mer, flanks averaged, mean of replicates
CATCTCGC: -0.25
CACGATGA: 0.0834
ACGACTAC: -0.127
GCTGATAC: -0.063
CTGGCGAC: -0.255
GTTCAAAC: 0.0322

Sample 3 — method: protein binding microarray; form: double-stranded DNA, one strand shown; sample: in vitro; concentration: not given; relative to: not given; reading: higher = stronger binding; measurement: E-score
Target: Histone acetyltransferase KAT6A, winged helix 1, GST fusion (KAT6A, Homo sapiens, UniProt Q92794, residues 1-85)
Setting: 8-mer, flanks averaged, mean of 2 arrays, mostly near background
Target sequence (chain): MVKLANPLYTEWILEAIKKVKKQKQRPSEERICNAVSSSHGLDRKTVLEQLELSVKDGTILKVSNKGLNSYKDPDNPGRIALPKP
CGTTGTGA: -0.079
ATAATTCC: -0.117
GCCCTGCA: -0.0541
TAGAGGGA: -0.329
ATAGGACC: -0.0573
CTTGAAGC: 0.0263

Other studies, line by line
PhoQ, residues 284 288 289 292 302 303 GNNTDL
fold induction (PhoP, residues 12 14 15 18 19 VHSCL (Escherichia coli, UniProt P23836); Sort-seq, item: YFP reporter; E. coli; PhoQ-PhoP variant library, together with: 10 µM Mg2+; relative to: high Mg2+ state, higher = stronger signaling): 3.02

Excerpt of the above (sample 3):
CGTTGTGA: -0.079
